{"data": "Assay results of several laboratories", "note": "Each numbered part is a random draw from the data of one study; scales do not carry over between parts.", "sequence of UniProt P00519 (whole entry, unmodified, looked up)": "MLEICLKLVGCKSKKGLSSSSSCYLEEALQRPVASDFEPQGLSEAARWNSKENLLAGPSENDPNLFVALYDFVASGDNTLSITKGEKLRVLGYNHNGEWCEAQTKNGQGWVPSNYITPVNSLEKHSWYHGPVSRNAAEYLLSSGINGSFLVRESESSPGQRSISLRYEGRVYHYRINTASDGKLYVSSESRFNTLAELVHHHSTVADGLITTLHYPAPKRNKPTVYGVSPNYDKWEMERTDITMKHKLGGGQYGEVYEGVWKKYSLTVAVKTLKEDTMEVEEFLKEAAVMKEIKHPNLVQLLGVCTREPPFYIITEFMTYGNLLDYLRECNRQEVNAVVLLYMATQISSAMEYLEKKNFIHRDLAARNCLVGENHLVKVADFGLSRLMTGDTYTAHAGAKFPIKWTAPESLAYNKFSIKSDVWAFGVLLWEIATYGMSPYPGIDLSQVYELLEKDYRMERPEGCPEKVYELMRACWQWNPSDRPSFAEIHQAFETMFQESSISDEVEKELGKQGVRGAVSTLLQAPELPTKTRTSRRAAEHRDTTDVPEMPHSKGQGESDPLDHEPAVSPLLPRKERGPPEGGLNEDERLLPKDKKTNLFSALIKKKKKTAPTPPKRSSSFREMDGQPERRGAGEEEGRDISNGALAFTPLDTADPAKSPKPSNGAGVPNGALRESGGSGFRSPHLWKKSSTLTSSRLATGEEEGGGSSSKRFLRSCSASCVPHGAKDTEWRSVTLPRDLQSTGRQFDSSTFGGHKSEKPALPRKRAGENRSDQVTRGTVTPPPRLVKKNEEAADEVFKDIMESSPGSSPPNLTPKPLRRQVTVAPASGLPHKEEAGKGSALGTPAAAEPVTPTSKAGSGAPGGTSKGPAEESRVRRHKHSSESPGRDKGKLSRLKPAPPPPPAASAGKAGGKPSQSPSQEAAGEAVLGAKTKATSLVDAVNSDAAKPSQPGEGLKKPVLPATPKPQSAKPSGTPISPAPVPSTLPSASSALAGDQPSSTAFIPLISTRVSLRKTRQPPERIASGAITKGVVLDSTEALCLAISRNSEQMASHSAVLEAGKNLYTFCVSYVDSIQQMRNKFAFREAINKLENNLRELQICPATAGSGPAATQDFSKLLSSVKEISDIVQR", "sequence of UniProt P29322 (whole entry, looked up)": "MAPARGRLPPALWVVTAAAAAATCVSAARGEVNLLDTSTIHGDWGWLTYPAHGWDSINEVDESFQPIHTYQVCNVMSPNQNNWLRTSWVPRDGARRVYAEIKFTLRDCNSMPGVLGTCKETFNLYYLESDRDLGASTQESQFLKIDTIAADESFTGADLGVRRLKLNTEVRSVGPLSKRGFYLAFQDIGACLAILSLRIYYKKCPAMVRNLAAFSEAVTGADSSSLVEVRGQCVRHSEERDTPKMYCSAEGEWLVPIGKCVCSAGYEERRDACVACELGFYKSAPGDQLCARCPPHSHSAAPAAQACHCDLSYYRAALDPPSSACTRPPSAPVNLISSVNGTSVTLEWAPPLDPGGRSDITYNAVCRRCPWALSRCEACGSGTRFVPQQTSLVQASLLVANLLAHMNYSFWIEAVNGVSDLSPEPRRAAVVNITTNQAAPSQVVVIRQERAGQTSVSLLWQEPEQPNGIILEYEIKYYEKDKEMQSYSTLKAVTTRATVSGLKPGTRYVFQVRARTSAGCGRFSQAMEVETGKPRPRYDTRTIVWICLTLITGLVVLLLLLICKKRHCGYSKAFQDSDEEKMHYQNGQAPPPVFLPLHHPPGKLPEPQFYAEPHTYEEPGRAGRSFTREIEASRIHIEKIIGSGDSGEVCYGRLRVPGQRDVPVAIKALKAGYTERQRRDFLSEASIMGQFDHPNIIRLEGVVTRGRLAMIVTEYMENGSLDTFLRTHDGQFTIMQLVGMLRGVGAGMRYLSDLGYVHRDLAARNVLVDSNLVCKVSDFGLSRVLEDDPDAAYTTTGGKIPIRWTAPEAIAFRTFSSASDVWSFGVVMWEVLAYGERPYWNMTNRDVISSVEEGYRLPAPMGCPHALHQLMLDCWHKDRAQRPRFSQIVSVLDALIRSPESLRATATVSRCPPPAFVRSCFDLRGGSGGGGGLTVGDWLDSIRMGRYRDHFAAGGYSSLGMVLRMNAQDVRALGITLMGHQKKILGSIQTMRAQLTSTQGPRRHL", "sequence of UniProt P54764 (whole entry, looked up)": "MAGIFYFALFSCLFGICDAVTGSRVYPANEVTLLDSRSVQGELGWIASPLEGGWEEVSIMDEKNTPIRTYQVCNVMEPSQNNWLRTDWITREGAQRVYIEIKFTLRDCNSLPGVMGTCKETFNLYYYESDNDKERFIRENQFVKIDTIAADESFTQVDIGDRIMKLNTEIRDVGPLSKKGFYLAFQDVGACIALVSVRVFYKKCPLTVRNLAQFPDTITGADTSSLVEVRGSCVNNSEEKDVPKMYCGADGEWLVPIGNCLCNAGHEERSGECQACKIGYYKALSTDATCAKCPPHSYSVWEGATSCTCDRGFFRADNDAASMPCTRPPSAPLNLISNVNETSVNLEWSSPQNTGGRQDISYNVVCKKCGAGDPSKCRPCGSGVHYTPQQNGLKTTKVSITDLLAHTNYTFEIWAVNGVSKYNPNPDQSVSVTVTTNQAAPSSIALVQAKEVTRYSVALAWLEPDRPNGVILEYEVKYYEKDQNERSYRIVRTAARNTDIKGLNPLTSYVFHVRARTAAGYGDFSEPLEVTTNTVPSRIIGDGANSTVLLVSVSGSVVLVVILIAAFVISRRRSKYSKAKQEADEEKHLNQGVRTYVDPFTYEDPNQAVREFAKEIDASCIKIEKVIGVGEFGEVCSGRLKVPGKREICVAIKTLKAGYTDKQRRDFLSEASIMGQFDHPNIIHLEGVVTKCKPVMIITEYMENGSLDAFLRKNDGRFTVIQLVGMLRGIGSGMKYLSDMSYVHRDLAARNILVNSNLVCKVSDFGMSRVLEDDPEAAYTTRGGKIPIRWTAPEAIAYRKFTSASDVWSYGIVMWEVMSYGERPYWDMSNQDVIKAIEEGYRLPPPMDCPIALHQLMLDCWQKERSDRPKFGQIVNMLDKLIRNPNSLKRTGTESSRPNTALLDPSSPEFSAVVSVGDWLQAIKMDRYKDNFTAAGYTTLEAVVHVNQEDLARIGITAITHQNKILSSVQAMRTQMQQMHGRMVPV", "sequence of UniProt Q9H422 (whole entry, looked up)": "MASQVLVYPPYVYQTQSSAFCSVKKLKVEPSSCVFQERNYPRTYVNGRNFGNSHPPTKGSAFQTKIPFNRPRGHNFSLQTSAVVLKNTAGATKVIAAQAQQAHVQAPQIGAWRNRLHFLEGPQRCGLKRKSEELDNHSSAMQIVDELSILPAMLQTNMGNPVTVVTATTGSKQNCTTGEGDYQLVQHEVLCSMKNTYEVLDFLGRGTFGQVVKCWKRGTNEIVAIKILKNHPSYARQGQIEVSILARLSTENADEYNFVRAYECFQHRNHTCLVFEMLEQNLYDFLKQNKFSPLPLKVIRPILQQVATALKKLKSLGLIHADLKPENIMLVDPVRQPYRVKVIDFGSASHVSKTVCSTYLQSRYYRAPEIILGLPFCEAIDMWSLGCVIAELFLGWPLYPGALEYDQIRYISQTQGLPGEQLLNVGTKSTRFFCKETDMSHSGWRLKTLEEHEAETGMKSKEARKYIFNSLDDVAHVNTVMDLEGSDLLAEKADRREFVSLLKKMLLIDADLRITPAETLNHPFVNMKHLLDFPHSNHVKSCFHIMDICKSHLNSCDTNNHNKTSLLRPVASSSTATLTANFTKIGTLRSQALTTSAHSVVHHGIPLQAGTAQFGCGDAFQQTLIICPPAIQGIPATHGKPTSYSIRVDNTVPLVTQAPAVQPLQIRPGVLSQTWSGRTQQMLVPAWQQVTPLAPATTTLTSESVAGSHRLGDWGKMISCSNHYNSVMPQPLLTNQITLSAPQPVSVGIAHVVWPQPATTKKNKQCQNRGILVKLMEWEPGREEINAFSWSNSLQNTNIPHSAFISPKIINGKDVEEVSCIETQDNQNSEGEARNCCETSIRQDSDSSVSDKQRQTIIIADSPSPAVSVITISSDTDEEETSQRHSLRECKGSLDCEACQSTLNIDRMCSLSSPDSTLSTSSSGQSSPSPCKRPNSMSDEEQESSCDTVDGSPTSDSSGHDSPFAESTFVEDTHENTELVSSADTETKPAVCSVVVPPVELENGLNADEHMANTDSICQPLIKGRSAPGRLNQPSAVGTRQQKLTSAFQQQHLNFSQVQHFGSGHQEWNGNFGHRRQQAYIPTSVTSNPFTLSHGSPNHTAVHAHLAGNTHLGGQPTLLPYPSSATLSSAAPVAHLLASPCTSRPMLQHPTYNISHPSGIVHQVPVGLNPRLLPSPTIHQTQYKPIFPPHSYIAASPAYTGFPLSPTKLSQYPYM", "sequence of UniProt P49674 (whole entry, looked up)": "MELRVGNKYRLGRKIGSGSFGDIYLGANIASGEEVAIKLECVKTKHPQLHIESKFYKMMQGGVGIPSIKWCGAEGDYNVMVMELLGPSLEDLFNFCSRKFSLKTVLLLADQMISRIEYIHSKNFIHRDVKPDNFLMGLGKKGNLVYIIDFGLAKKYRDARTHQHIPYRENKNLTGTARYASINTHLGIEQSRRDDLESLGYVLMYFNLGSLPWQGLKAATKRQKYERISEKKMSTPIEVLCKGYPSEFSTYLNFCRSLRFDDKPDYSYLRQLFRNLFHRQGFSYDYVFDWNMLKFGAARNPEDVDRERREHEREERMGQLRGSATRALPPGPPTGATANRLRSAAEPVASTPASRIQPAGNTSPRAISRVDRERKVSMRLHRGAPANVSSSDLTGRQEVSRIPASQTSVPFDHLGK"}
{"data": "Set 1", "host": "mouse", "medium": "microsomes or S9", "concentration": "2 µM", "time": "0.5 h"}
{"SMILES": "Cc1cc(C(=O)NCCS(=O)(=O)N(C)C)cnc1C", "remaining compound [%]": 88.6}
{"SMILES": "COC(=O)c1cc(N)c2c(c1)Oc1ccccc1O2", "remaining compound [%]": 0}
{"SMILES": "COc1cc(=O)n(C)cc1C(=O)N1CCN(c2ccccc2Cl)CC1", "remaining compound [%]": "> 99"}
{"data": "Set 2", "Compound": "Cn1cc(Cl)c2c(Oc3c(F)cc(Nc4cc(Cl)nc(N)n4)cc3F)ccnc21", "method": "competition with immobilised ligand", "concentration": "0.1 µM"}
{"target": "Homeodomain-interacting protein kinase 3 (HIPK3, Homo sapiens, UniProt Q9H422)", "test": "cell-free assay", "remaining binding [%]": 80}
{"target": "Tyrosine-protein kinase ABL1, phosphorylated (ABL1, Homo sapiens, UniProt P00519, E255K)", "test": "binding", "remaining binding [%]": 100}
{"target": "Protein kinase C delta type (PRKCD, Homo sapiens, UniProt Q05655)", "test": "cell-free assay", "remaining binding [%]": 100}
{"target": "Receptor-type tyrosine-protein kinase FLT3 (FLT3, Homo sapiens, UniProt P36888, F691L/ITD)", "test": "cell-free assay", "remaining binding [%]": 61}
{"target": "Ephrin type-A receptor 4 (EPHA4, Homo sapiens, UniProt P54764)", "test": "cell-free assay", "remaining binding [%]": 100}
{"target": "Dual specificity mitogen-activated protein kinase kinase 7 (MAP2K7, Homo sapiens, UniProt O14733)", "test": "cell-free assay", "remaining binding [%]": 84}
{"target": "Cyclin-G-associated kinase (GAK, Homo sapiens, UniProt O14976)", "test": "cell-free assay", "remaining binding [%]": 100}
{"target": "Citron Rho-interacting kinase (CIT, Homo sapiens, UniProt O14578)", "test": "cell-free assay", "remaining binding [%]": 100}
{"target": "Phosphorylase b kinase gamma catalytic chain, liver/testis isoform (PHKG2, Homo sapiens, UniProt P15735)", "test": "cell-free assay", "remaining binding [%]": 100}
{"target": "Ephrin type-A receptor 8 (EPHA8, Homo sapiens, UniProt P29322)", "test": "cell-free assay", "remaining binding [%]": 100}
{"target": "Tyrosine-protein kinase Srms (SRMS, Homo sapiens, UniProt Q9H3Y6)", "test": "cell-free assay", "remaining binding [%]": 100}
{"target": "G protein-coupled receptor kinase 3 (GRK3, Homo sapiens, UniProt P35626)", "test": "cell-free assay", "remaining binding [%]": 83}
{"target": "Wee1-like protein kinase (WEE1, Homo sapiens, UniProt P30291)", "test": "cell-free assay", "remaining binding [%]": 91}
{"target": "Receptor tyrosine-protein kinase erbB-2 (ERBB2, Homo sapiens, UniProt P04626)", "test": "cell-free assay", "remaining binding [%]": 95}
{"target": "Mast/stem cell growth factor receptor Kit (KIT, Homo sapiens, UniProt P10721, L576P)", "test": "cell-free assay", "remaining binding [%]": 100}
{"target": "Serine/threonine-protein kinase 38-like (STK38L, Homo sapiens, UniProt Q9Y2H1)", "test": "binding", "remaining binding [%]": 100}
{"target": "Casein kinase I isoform epsilon (CSNK1E, Homo sapiens, UniProt P49674)", "test": "cell-free assay", "remaining binding [%]": 98}
{"target": "Tyrosine-protein kinase ABL1, non-phosphorylated (ABL1, Homo sapiens, UniProt P00519, F317L)", "test": "cell-free assay", "remaining binding [%]": 94}
{"data": "Set 3", "target": "Phosphorylase b kinase gamma catalytic chain, liver/testis isoform (PHKG2, Homo sapiens, UniProt P15735)", "observed": "enzyme activity", "action": "inhibitor", "concentration": "0.5 µM", "baseline": "control", "Residues (P15735 1-406)": "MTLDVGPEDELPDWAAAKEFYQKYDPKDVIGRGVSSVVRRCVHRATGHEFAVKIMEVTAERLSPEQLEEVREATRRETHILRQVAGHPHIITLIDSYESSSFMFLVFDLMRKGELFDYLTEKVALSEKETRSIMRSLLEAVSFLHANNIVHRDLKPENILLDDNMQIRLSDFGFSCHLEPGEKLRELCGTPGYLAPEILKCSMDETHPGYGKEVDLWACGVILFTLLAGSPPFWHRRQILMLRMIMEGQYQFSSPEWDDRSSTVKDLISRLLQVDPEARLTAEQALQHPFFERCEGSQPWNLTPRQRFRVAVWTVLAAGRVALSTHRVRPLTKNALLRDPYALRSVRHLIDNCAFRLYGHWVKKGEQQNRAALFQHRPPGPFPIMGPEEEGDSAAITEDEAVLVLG"}
{"SMILES": "CO[C@H]1C[C@@H]2CC[C@@H](C)[C@@](O)(O2)C(=O)C(=O)N2CCCC[C@H]2C(=O)O[C@H]([C@H](C)C[C@@H]2CC[C@@H](O)[C@H](OC)C2)CC(=O)[C@H](C)/C=C(\\C)[C@@H](O)[C@@H](OC)C(=O)[C@H](C)C[C@H](C)/C=C/C=C/C=C/1C", "remaining activity [%]": 108}
{"SMILES": "Oc1ccc(-c2nc(-c3ccncc3)c(-c3ccc(F)cc3)[nH]2)cc1", "remaining activity [%]": 94.3}
{"SMILES": "C#Cc1cccc(Nc2ncnc3cc(OCCOC)c(OCCOC)cc23)c1", "remaining activity [%]": 97.9}
{"SMILES": "CC(C)[C@H](CO)Nc1nc(Nc2cc(N)cc(Cl)c2)c2ncn(C(C)C)c2n1", "remaining activity [%]": 105}
{"SMILES": "Cc1nc(-c2ccccc2)c(-c2ccncc2)o1", "remaining activity [%]": 97.6}
{"SMILES": "COc1cc2nccc(Oc3ccc(NC(=S)NC(=O)c4ccccc4C)cc3)c2cc1OC", "remaining activity [%]": 110}
{"SMILES": "COc1ccc(C(=O)Nc2sc3c(c2C(N)=O)CCCC3)cc1OC", "remaining activity [%]": 106}
{"SMILES": "O=C(Nc1cccc(Nc2cc(Nc3cccc(C(F)(F)F)c3)ncn2)c1)C1CC1", "remaining activity [%]": 101}
{"SMILES": "COc1ccc(OC)c2c(=S)c3ccccc3[nH]c12", "remaining activity [%]": 94.6}
{"SMILES": "O=c1c2ccccc2[nH]c(=S)n1CCN1CCC(=C(c2ccc(F)cc2)c2ccc(F)cc2)CC1", "remaining activity [%]": 100}
{"SMILES": "COc1ccc(CNC(=O)Nc2ncc([N+](=O)[O-])s2)cc1", "remaining activity [%]": 105}
{"SMILES": "NCCNc1ncc(C(N)=O)c(Nc2cccc(C(F)(F)F)c2)n1", "remaining activity [%]": 78.3}
{"SMILES": "Nc1ncnc2n[nH]c(Nc3ccc(F)cc3)c12", "remaining activity [%]": 101}
{"SMILES": "N#CC(C#N)=C(N)/C(C#N)=C/c1ccc(O)cc1", "remaining activity [%]": 96.7}
{"SMILES": "Nc1ccc2ncnc(NCCc3ccc(Oc4ccccc4)cc3)c2c1", "remaining activity [%]": 98.7}
{"data": "Other studies, line by line"}
{"Compound": "CC(C)n1cnc(-c2ccc(F)cc2)c1-c1ncc(C(=O)Nc2ccc(N3CCN(C)CC3)cc2)[nH]1", "test": "phase 2a clinical trial", "test system": "patients with idiopathic pulmonary fibrosis", "setting": "60 mg once daily, grade ≥3, without standard of care", "measurement": "patients with serious adverse events", "value": "14.3%"}
{"note": "Excerpt of the above (set 3):"}
{"SMILES": "COc1ccc(CNC(=O)Nc2ncc([N+](=O)[O-])s2)cc1", "remaining activity [%]": 105}
{"SMILES": "NCCNc1ncc(C(N)=O)c(Nc2cccc(C(F)(F)F)c2)n1", "remaining activity [%]": 78.3}
